Measured values pooled from the literature.
Lines come from different studies, so protocols differ.
Target: Cytochrome P450 2C19 (CYP2C19, Homo sapiens, UniProt P33261)
Sequence of UniProt P33261 (whole entry, looked up): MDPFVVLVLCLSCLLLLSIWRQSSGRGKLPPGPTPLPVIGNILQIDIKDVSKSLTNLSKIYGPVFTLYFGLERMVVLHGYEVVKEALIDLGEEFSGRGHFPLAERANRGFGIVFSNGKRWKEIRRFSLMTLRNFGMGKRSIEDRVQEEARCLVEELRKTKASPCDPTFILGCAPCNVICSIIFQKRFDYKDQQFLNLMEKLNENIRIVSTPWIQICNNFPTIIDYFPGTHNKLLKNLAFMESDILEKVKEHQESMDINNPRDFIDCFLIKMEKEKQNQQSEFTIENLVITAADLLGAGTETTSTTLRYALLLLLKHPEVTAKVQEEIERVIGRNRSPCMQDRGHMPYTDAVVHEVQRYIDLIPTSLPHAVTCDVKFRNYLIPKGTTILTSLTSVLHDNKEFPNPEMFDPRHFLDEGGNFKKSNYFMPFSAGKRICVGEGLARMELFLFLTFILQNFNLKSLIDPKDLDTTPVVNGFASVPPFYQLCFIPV
Mode: inhibitor

For `C=CC(=O)Nc1cc(Nc2nccc(-c3cn(C)c4ccccc34)n2)c(OCC(F)(F)F)nc1N(C)CCN(C)C`, the IC50 was greater than 100 µM (enzyme activity; human, liver microsomes).
`COC(=O)c1ccc2c(c1)NC(=O)/C2=C(\Nc1ccc2c(c1)CCN2C(=O)CN1CCOCC1)c1ccccc1` gave an IC50 of 73.4 µM (recombinant enzyme; 10 min, together with: S-mephenytoin 30 µM).
For `O=C(O)c1ccc(/C=C2\SC(=S)N(Cc3cccc(C(F)(F)F)c3)C2=O)cc1`, the IC50 was greater than 50 µM (enzyme activity; human, liver microsomes).
The IC50 of `NC(=O)c1c(F)ccc(OCc2nc3cc(Cl)cnc3s2)c1F` is reported as greater than 33.7 µM (enzyme activity, fluorescence).
`Cc1cc(/C=C/C#N)cc(C)c1Oc1nc(NC2CCN(Cc3ccc(S(C)(=O)=O)cc3)CC2)nc2ncccc12` gave an IC50 of 8.47 µM (enzyme activity; human, liver microsomes; 10 min).
With `O=c1nc(NO)ccn1[C@@H]1O[C@H](CO)[C@@H](O)[C@H]1O` the IC50 was greater than 100 µM (enzyme activity; human, liver microsomes; 1 h, pH 7.4).
For `O=C(O)C(O)Cc1ccc(O)c(O)c1` (stereo not shown), the IC50 was 67 µM (enzyme activity, fluorescence).
`C[C@](C(=O)NC1CCC(F)(F)CC1)(c1cncnc1)N(C(=O)[C@H](F)Cl)c1ccc(OC(F)(F)F)cc1` gave an IC50 of greater than 50 µM (enzyme activity; 10 (unit not given)).
The IC50 of `C[C@@H](c1ccn(Cc2ccc(OC(F)(F)F)cc2)n1)[C@](O)(Cn1cnnn1)c1ccc(F)cc1F` is reported as 1.39 µM (enzyme activity; human, liver microsomes).
`O=C1c2oc3cc(O)c(O)cc3c2C(=O)c2oc3cc(O)c(O)cc3c21` gave an IC50 of 4.9 µM (enzyme activity; human, liver microsomes; 1 h, pH 7.4).
The IC50 of `CCC(=O)N(C)c1ccc(Cl)c(Cl)c1` is reported as greater than 25 µM (enzyme activity; human, liver microsomes; 1 h).
`C[C@@H](c1ccn(Cc2ccc(Cl)c(Cl)c2)n1)[C@](O)(Cn1cnnn1)c1ccc(F)cc1F` has an IC50 of 0.728 µM (enzyme activity; human, liver microsomes).
`O=C(NC1CCC(F)(F)CC1)C(c1cncnc1)N(C(=O)C(F)Cl)c1ccc(-c2cncs2)cc1` (stereo not shown) has an IC50 of 9.5 µM (enzyme activity; 10 (unit not given)).
The IC50 of `C[C@H]1CN(C(=O)c2cn(-c3ccnc(N)n3)c3cc(C#CC4(O)CCCCC4)ccc23)CCN1` is reported as 42.3 µM (enzyme activity; human, liver microsomes; 10 min).
`Cc1ccc(OCC(=O)N(Cc2cccs2)c2ccn[nH]2)cc1` gave an IC50 of 1.3 µM (enzyme activity; human, liver microsomes).
`COc1ccc2c(c1OCc1ccccc1)C[C@@H](C(=O)O)N(c1nc3ccc(C#N)cc3o1)C2` gave an IC50 of greater than 50 µM (enzyme activity; human, liver microsomes; 15 min, pH 7.4).

Repeated from above:
`COC(=O)c1ccc2c(c1)NC(=O)/C2=C(\Nc1ccc2c(c1)CCN2C(=O)CN1CCOCC1)c1ccccc1` gave an IC50 of 73.4 µM (recombinant enzyme; 10 min, together with: S-mephenytoin 30 µM).
